Results gathered from unrelated publications.
Parts stem from different laboratories: compare values within a part only.

Block 1 — method: aptamer microarray, sandwich; molecule type: DNA with 2'F-ANA; sample: in vitro; concentration: 200 nM; with: Cy3 exosite-II aptamer, 400 nM; direction: higher = stronger binding; measurement: mean fluorescence intensity; sequence: GGTTGGTGTGGTTGG
Target: Prothrombin, mature alpha-thrombin (F2, Homo sapiens, UniProt P00734)
Setting: whole 15-mer aptamer, many near background
2'F-ANA at 2 3 4 7 9 10 11 14: 183 a.u.
2'F-ANA at 1 6 9 10 14 15: 49.1 a.u.
2'F-ANA at 2 3 5 7 9: 101 a.u.
2'F-ANA at 1 4 5 8 13 14 15: 65.5 a.u.
2'F-ANA at 1 2 3 4 5 6 9 10 11: 67.2 a.u.
2'F-ANA at 1 3 5 6 8 9 10 11 14: 64.2 a.u.

Block 2 — method: protein-binding microarray; molecule type: double-stranded DNA, one strand shown; sample: in vitro; concentration: 2540 nM top; setting: 60-bp whole probe; with: salmon DNA 0.4 mg/ml; reference: random background probes; direction: higher = stronger binding; measurement: fitted relative affinity; constant ends, left off below: GCCTAGCAC … GTCTTGATTCGCTTGACGCTGCTG
Target: Interferon regulatory factor 3, full length, phosphomimetic (IRF3, Homo sapiens, UniProt Q14653, residues 1-427, S386D/S396D/S398D/S402D/T404D/S405D)
UniProt Q14653, sequence (whole entry, unmodified, looked up): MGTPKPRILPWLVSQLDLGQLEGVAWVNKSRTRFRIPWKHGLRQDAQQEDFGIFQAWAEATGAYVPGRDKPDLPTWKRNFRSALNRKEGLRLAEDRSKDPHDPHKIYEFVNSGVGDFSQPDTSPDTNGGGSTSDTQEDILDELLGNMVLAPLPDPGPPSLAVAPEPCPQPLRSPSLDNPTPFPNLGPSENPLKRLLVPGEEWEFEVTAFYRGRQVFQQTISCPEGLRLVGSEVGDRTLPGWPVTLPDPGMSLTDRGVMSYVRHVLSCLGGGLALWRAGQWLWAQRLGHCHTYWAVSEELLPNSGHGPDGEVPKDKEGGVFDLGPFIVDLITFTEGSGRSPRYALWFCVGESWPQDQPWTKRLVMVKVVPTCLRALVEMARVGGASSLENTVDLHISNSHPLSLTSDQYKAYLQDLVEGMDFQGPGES
GACGGTCTCCTTTTCCTGCCGTGCTAG: 4.68 z-score
GACGGACTGCTTATCATGACGTGCTAG: -0.318 z-score
GACGGTTTCGGTCTCGGGACGTGCTAG: 8.3 z-score
GACGGTATCGGGTAACGGGACGTGCTA: 1.28 z-score
CTTTAGAGCAAGAACAGCCTGTGCTAG: -0.256 z-score

Block 3 — method: universal PBM; molecule type: double-stranded DNA, one strand shown; sample: in vitro; concentration: 600 nM; direction: higher = stronger binding; measurement: E-score
Target: Sal-like protein 4, full length isoform A (SALL4, Homo sapiens, UniProt Q9UJQ4, residues 1-1053)
UniProt Q9UJQ4, sequence (whole entry, looked up): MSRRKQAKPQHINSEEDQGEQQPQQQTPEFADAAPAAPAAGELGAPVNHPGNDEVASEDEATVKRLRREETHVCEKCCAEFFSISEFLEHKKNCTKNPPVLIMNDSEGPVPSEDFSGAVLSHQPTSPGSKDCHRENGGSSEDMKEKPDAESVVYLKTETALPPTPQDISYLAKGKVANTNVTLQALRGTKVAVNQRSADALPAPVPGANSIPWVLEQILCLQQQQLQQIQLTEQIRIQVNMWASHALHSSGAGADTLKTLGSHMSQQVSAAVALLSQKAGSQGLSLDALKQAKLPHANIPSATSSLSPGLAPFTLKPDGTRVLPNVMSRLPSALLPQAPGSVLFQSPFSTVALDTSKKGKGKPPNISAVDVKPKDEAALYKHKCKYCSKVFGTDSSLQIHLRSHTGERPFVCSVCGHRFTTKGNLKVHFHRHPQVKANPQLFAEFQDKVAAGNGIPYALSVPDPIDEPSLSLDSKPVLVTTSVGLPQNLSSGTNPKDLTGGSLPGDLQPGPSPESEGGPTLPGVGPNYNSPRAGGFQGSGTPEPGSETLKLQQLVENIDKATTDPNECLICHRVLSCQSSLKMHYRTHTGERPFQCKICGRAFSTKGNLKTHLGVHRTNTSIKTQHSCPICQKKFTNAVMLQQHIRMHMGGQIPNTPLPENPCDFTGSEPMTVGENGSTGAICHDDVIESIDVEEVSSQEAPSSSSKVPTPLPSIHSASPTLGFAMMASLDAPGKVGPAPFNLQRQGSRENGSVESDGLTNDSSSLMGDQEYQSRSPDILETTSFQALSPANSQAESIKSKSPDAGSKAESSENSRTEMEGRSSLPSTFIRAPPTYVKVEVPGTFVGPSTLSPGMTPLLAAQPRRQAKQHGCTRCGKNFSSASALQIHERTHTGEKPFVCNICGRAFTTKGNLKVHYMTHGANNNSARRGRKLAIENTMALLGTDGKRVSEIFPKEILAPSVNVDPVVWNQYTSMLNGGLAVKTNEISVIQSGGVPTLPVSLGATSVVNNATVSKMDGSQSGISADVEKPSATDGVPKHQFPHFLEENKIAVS
Setting: 8-mer, flanks averaged, mean of replicates
CCGTAAAC: 0.0192
GATGATGA: 0.0471
GCAAGAAA: 0.0828
ATTCGGTA: 0.217
CACGCGTG: -0.214

Mixed results
PhoQ, residues 284 288 289 292 302 303 SMMNNA  fold induction (PhoP, residues 12 14 15 18 19 NHFIF (Escherichia coli, UniProt P23836); Sort-seq, item: YFP reporter; E. coli; PhoQ-PhoP variant library, with: 10 µM Mg2+; reference: high Mg2+ state, higher = stronger signaling): 0.594

For quick reference, copied from above (block 1):
2'F-ANA at 1 2 3 4 5 6 9 10 11: 67.2 a.u.
